Assay results of several laboratories.
Lines come from different studies, so protocols differ. ± marks the error that the study gave. In brackets after ≈: the same amount, converted by molar mass.

`Cn1nc(-c2ccc(Cl)cc2)nc2c(=O)n(C)c(=O)nc1-2` has a maximal activity of 55% (Mus musculus; gene silencing, high-content imaging; LDR reporter GFP cells; retest run 2).
`COc1cc(C=O)ccc1OC1=C(Cl)C(=O)c2ccccc2C1=O`: “zone of inhibition” 18 mm (Aspergillus niger; ITCC 7787; 10 µg/mL).
`O=C1O[C@H]2[C@@H]3OC(=O)c4cc(O)c(O)c(O)c4-c4c(O)c(O)c5oc(=O)c6c(c(O)c(O)c7oc(=O)c4c5c76)-c4c(cc(O)c(O)c4O)C(=O)OC[C@H]3OC(O)[C@@H]2OC(=O)c2cc(O)c(O)c(O)c2-c2c1cc(O)c(O)c2O` (mixture of isomers) gave an MBC/MIC ratio of 2 (Streptococcus mutans; broth microdilution).
`CN[C@H](CC(C)C)C(=O)N[C@H]1C(=O)N[C@@H](CC(N)=O)C(=O)N[C@H]2C(=O)N[C@H]3C(=O)N[C@H](C(=O)N[C@H](C(=O)O)c4cc(O)cc(O)c4-c4cc3ccc4O)[C@H](O)c3ccc(c(Cl)c3)Oc3cc2cc(c3O[C@@H]2O[C@H](CO)[C@@H](O)[C@H](O)[C@H]2O[C@H]2C[C@](C)(N)[C@H](O)[C@H](C)O2)Oc2ccc(cc2Cl)[C@H]1O` gave an MIC50 of 0.5 µg/mL (≈ 0.345 µM) (Streptococcus pneumoniae; penicillin-resistant, 10 isolates; serum 25%).
With `Cc1ccc(NC(=O)N2Cc3[nH]cnc3C[C@H]2c2nc(-c3ccc4c(c3)OCO4)no2)cc1` the mean lifespan was 22.5 days (Caenorhabditis elegans; N2; 12.5 µM).
With `O=C1NC(=O)C(c2ccccc2Cl)=C1Nc1cccc(O)c1` the selectivity was greater than 1.7 (Trypanosoma brucei; unit not given; baseline: pEC50 T. brucei minus pTC50 HepG2).
For `Cc1nc2[nH]c(=O)n(O)c(=O)c2s1`, the growth inhibition was 19.8% (Digitaria adscendens; 1500 g/ha, 21 days, post-emergence, glasshouse pot).
`COCCC(=O)Nc1ccc([C@H]2[C@@H](F)[C@@H](F)C[C@@H](F)[C@H]2F)cc1` has a hepatic clearance of 11 mL/min/kg (liver microsome stability; human liver microsomes; 1 µM, without NADPH).
`Br.CN(C)c1nc(=Nc2cccc(Cl)c2)ss1` has a maximal activity of 11% (Mus musculus; gene silencing, high-content imaging; LDR reporter GFP cells; retest run 1).
For `Oc1cc(O)c2c(c1)O[C@H](c1cc(O)c(O)c(O)c1)[C@@H](O)C2`, “initial rate of glycolytic pH drop” read 0.037 pH units/min (Streptococcus mutans; MIC, first 15 min, together with: glucose 1%).
Under “MIC in combination”, `N=C(N)c1ccc(OCc2ccc(-c3ccccc3)cc2COc2ccc(C(=N)N)cc2)cc1` is recorded as 6.25 µg/mL (Escherichia coli; BW25113; concentration not given, lowest-FICI combination, together with: novobiocin).
For `C[C@@]12COCO[C@@H]1CC[C@]1(C)[C@@H]2CC[C@@H]2CN(Cc3ccc(F)cc3)[C@@H](C3=CCOC3=O)C[C@H]21`, the inhibition was 36.3% (Human coronavirus 229E; cytopathic effect; MRC5; 25 µM, corrected for cytotoxicity).
`CO[C@H]1/C=C/O[C@@]2(C)Oc3c(C)c(O)c4c(c3C2=O)C2=NC3(CCN(CC(C)C)CC3)NC2=C(NC(=O)/C(C)=C\C=C\[C@H](C)[C@H](O)[C@@H](C)[C@@H](O)[C@@H](C)[C@H](OC(C)=O)[C@@H]1C)C4=O` has an IC90 of 682 nM (Mycobacteroides abscessus; bacterial growth; subsp. massiliense clinical isolate; slow grower).
For `CC1(C)S[C@@H]2[C@H](NC(=O)[C@H](N)c3ccccc3)C(=O)N2[C@H]1C(=O)O`, the MIC was greater than 16 µg/mL (Pseudomonas aeruginosa; clinical isolate RKI-No_482/15).
`CC1(C)OC[C@@]2(C)[C@H]3CC[C@@H]4CN(Cc5ccc(I)cc5)[C@@H](C5=CCOC5=O)C[C@H]4[C@]3(C)CC[C@H]2O1` has an inhibition of 84.7% (Human coronavirus 229E; cytopathic effect; MRC5; 25 µM, corrected for cytotoxicity).
`N=C(N)c1ccc(OCc2cc(COc3ccc(C(=N)N)cc3)cc(-c3ccccc3)c2)cc1`: “MIC in combination” 3.13 µg/mL (Escherichia coli; BW25113; concentration not given, lowest-FICI combination, together with: novobiocin).
The MIC range of `CN[C@H](CC(C)C)C(=O)N[C@H]1C(=O)N[C@@H](CC(N)=O)C(=O)N[C@H]2C(=O)N[C@H]3C(=O)N[C@H](C(=O)N[C@H](C(=O)O)c4cc(O)cc(O)c4-c4cc3ccc4O)[C@H](O)c3ccc(c(Cl)c3)Oc3cc2cc(c3O[C@@H]2O[C@H](CO)[C@@H](O)[C@H](O)[C@H]2O[C@H]2C[C@](C)(N)[C@H](O)[C@H](C)O2)Oc2ccc(cc2Cl)[C@H]1O` is reported as 0.5 µg/mL (≈ 0.345 µM) (Streptococcus mutans; broth microdilution; clinical isolate).
`COc1ccc(CN2C[C@H]3CC[C@@H]4[C@](C)(COC(C)=O)[C@H](OC(C)=O)CC[C@@]4(C)[C@@H]3C[C@@H]2C2=CCOC2=O)cc1` gave an inhibition of -51.3% (Human coronavirus 229E; cytopathic effect; MRC5; 25 µM, corrected for cytotoxicity).
The growth of `COC(=O)[C@H](Cc1c[nH]c2ccccc12)NCc1cc2ccccc2nc1SC` is reported as 96.9% (Pseudomonas aeruginosa; 64 µg/mL, without pentamidine; baseline: control).
`O=C(Cn1ccnc1)Nc1ccc([C@H]2[C@@H](F)[C@@H](F)C[C@@H](F)[C@H]2F)cc1` gave a hepatic clearance of 7.3 mL/min/kg (dog liver microsomes; 1 µM).
For `COc1ccc(CN2C[C@H]3CC[C@@H]4[C@]5(C)COC(C)(C)O[C@@H]5CC[C@@]4(C)[C@@H]3C[C@@H]2C2=CCOC2=O)cc1`, the inhibition was 62.2% (Human coronavirus 229E; cytopathic effect; MRC5; 25 µM, corrected for cytotoxicity).
`O=C(O)CCCCCN1C(=O)/C(=C\c2ccc(-c3ccc(Cl)cc3)o2)SC1=S` has a maximal activity of 166% (Mus musculus; gene silencing, high-content imaging; LDR reporter GFP cells; retest run 2).
`C[C@@]12COCO[C@@H]1CC[C@]1(C)[C@@H]2CC[C@@H]2CN(Cc3ccccc3)[C@@H](C3=CCOC3=O)C[C@H]21` has an inhibition of 10.7% (Human coronavirus 229E; cytopathic effect; MRC5; 25 µM, corrected for cytotoxicity).
For `CCn1c(-c2nonc2N)nc2c(C#CC(C)(C)O)nc(OC[C@H](N)c3ccccc3)cc21`, the selectivity was 0.8 (Trypanosoma brucei; unit not given; baseline: pEC50 T. brucei minus pTC50 HepG2).
For `CCn1c(=O)c(-c2cc[nH]n2)cc2c(C)nc(N)nc21`, “viral RNA level” read “decreased” (Enterovirus A71; viral entry, RT-qPCR; 0.8 µM, 1 h, 37 °C; baseline: untreated).
`COc1cc(C)c(NC(=O)CN(C)C)cc1Nc1nc(Nc2cccc(F)c2C(N)=O)c2cc[nH]c2n1` has a selectivity of greater than 1.8 (Trypanosoma brucei; unit not given; baseline: pEC50 T. brucei minus pTC50 HepG2).
The EC50 of `Cc1cc(OC(C)C)ccc1C(=O)C(C)(C)NC(=O)c1sccc1C` is reported as 0.79 µg/mL (≈ 2.2 µM) (Venturia inaequalis; mycelial growth; PSA medium; 20 °C).
With `O=C(O[C@H]1CN[C@H](C#Cc2cc3ncnc(Nc4ccc5c(ccn5Cc5cc(F)ccc5F)c4)c3s2)C1)N1CCOCC1` the selectivity was 1.4 (Trypanosoma brucei; unit not given; baseline: pEC50 T. brucei minus pTC50 HepG2).
`Br.N=c1n(CC(=O)c2ccc([N+](=O)[O-])cc2)c2ccccc2n1Cc1ccccc1Cl` gave a maximal activity of 63% (Mus musculus; gene silencing, high-content imaging; LDR reporter GFP cells; retest run 2).
With `CC(=O)OC[C@@]1(C)[C@H]2CC[C@@H]3CN(C(C)C)[C@@H](C4=CCOC4=O)C[C@H]3[C@]2(C)CC[C@H]1OC(C)=O` the inhibition was 82.2% (Human coronavirus 229E; cytopathic effect; MRC5; 25 µM, corrected for cytotoxicity).
For `O=c1[nH]c2ncsc2c(=O)n1O`, the growth inhibition was 20.9% (Digitaria adscendens; 1500 g/ha, 21 days, post-emergence, glasshouse pot).
`O=c1[nH]c(CCl)nc2scc(-c3ccccc3F)c12` has a selectivity index of 5 ± 1.6 (Trypanosoma brucei brucei; 449 Lister 427 bloodstream form; 24 h; baseline: EC50 HEK293 over EC50 T. brucei).
For `CC(C)Cc1ccc(C(C)C(=O)O)cc1` (stereo not drawn), the bioluminescence inhibition was 60% (Aliivibrio fischeri; 500 µM, 15 min; baseline: DMSO).
With `COC(=O)[C@H](Cc1ccc(O)cc1)NCc1cc2ccccc2nc1SC` the growth was 53.2% (Pseudomonas aeruginosa; 4 µg/mL, together with: pentamidine 100 µM; baseline: control).
`O=c1oc2c(O)c(O)cc3c(=O)oc4c(O)c(O)cc1c4c23` has an MBC/MIC ratio of 2 (Streptococcus mutans; broth microdilution).
`COc1cccc(-n2ncc3c(N/N=C/c4ccc(C(=O)NCCN(C)C)cc4)ncnc32)c1` has a selectivity of 1.8 (Trypanosoma brucei; unit not given; baseline: pEC50 T. brucei minus pTC50 HepG2).
For `O=[N+]([O-])c1ccc(-c2ccc(/C=N/Nc3nc(N4CCCCC4)nc(N4CCCCC4)n3)o2)cc1`, the maximal activity was 26% (Mus musculus; gene silencing, high-content imaging; LDR reporter GFP cells; retest run 2).
`COc1cc2c(cc1C(=O)Nc1ccc(C(C)(C)C#N)cc1)CCCCC2` gave an EC90 of 200 nM (West Nile virus; viral replication; HEK293).
For `CC(C)n1ncc2c(C(=O)NCC3(C)CNC3)cc(C3CC3)nc21`, the plaque reduction was 100% (Enterovirus A71; viral replication; Tainan/4643/1998; 30000 nM).
Under “PC50 parasite clearance time mean”, `Cc1cc(Nc2ccc(S(F)(F)(F)(F)F)cc2)n2nc(C(C)(F)F)nc2n1` is recorded as 16.1 h (Plasmodium falciparum; microscopy; P. falciparum malaria patients; oral, 400 mg).
`C[n+]1cc(NC(=O)c2ccc3ccc4ccc(C(=O)Nc5cc6ccccc6[n+](C)c5)nc4c3n2)cc2ccccc21` — result for “downregulated G4-containing genes”: 7 genes (Trypanosoma brucei; RNA-seq; Lister 427 bloodstream form; 2 × EC50, 4 h, ChIP-seq G4 peak overlap).
`C=C1C(=O)O[C@@H]2[C@H]3O[C@]3(C)CC/C=C(/C)CC[C@@H]12` has a maximal activity of 58% (Mus musculus; gene silencing, high-content imaging; LDR reporter GFP cells; retest run 2).
The selectivity of `O=C(Nc1ccc(Oc2ccc3nc(NC(=O)c4ccccc4)[nH]c3c2)cc1)Nc1cc(C(F)(F)F)ccc1F` is reported as 0.5 (Trypanosoma brucei; unit not given; baseline: pEC50 T. brucei minus pTC50 HepG2).
`CC(C)C[C@@H](C=O)NC(=O)[C@H](CC(C)C)NC(=O)[C@H](CC(C)C)NC(=O)OCc1ccccc1` gave an AC50 of 1260 nM (Mus musculus; gene silencing, high-content imaging; LDR reporter GFP cells; retest run 2).
With `CC(C)COC(=O)c1ccc2c(c1)/C(=C/Nc1ccc(S(N)(=O)=O)cc1)C(=O)N2` the selectivity was 2.2 (Trypanosoma brucei; unit not given; baseline: pEC50 T. brucei minus pTC50 HepG2).
The maximal activity of `Oc1[nH]c2ccccc2c1N=NC(=S)N1CCOCC1` is reported as 85% (Mus musculus; gene silencing, high-content imaging; LDR reporter GFP cells; retest run 1).
For `Cc1c2ccc(N(C)c3ccnc(Nc4cccc(S(N)(=O)=O)c4)n3)cc2nn1C`, the selectivity was 0.8 (Trypanosoma brucei; unit not given; baseline: pEC50 T. brucei minus pTC50 HepG2).
For `CC1CCC(C(C)C)C(OC2=C(Cl)C(=O)c3ccccc3C2=O)C1` (stereo not drawn), “zone of inhibition” read 16 mm (Aspergillus niger; ITCC 7787; 10 µg/mL).
